# Measured values pooled from the literature.
# By UniProt entry, the sequences of proteins in these tests, tags left out. Chains listed by the source or under a name are the forms on record and can include a tag or linker. Residues count along the entry.
# UniProt P41146, whole entry: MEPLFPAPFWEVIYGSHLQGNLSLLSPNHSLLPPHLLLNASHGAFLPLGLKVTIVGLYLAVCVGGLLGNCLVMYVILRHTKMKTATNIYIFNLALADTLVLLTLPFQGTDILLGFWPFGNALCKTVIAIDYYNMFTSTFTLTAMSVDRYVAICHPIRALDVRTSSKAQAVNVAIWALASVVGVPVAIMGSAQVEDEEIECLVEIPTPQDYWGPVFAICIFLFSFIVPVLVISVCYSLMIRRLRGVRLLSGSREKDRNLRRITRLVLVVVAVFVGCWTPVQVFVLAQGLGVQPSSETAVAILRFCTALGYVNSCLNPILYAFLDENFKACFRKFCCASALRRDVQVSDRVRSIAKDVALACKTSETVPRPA
# UniProt Q9VNB5, whole entry: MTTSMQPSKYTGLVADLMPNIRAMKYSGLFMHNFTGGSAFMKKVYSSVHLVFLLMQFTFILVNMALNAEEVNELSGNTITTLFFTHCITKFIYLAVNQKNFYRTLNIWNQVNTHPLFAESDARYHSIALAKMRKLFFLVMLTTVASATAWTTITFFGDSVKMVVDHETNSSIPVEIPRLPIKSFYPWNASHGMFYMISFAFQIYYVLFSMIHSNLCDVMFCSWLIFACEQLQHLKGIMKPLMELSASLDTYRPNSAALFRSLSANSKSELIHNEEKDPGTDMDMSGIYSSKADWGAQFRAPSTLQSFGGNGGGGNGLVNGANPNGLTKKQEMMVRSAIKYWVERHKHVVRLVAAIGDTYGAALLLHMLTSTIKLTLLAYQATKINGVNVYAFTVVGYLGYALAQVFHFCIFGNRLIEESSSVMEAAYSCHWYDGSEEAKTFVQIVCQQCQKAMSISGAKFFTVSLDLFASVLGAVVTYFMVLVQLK
# UniProt Q8I719, whole entry: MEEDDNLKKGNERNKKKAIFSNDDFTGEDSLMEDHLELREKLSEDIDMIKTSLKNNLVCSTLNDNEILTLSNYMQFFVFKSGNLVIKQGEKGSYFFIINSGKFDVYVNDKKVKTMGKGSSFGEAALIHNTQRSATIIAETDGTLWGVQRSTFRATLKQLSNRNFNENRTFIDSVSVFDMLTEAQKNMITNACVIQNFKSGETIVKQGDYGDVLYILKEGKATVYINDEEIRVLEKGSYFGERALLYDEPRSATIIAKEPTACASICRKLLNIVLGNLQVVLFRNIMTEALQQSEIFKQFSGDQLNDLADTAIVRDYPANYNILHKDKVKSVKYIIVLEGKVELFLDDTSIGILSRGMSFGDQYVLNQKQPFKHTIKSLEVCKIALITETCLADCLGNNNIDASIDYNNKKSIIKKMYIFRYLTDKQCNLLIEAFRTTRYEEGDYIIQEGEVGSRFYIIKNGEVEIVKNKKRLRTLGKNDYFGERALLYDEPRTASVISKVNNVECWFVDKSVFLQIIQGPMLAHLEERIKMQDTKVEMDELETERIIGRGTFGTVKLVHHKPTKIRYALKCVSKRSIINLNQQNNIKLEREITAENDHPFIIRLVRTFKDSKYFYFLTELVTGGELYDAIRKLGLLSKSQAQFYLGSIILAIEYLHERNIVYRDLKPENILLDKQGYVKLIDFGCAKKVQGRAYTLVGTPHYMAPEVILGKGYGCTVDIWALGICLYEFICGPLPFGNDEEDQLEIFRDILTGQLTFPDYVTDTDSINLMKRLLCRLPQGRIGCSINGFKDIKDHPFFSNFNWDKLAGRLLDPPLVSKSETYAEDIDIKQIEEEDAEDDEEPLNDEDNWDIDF
# UniProt Q8I719, whole entry T618Q: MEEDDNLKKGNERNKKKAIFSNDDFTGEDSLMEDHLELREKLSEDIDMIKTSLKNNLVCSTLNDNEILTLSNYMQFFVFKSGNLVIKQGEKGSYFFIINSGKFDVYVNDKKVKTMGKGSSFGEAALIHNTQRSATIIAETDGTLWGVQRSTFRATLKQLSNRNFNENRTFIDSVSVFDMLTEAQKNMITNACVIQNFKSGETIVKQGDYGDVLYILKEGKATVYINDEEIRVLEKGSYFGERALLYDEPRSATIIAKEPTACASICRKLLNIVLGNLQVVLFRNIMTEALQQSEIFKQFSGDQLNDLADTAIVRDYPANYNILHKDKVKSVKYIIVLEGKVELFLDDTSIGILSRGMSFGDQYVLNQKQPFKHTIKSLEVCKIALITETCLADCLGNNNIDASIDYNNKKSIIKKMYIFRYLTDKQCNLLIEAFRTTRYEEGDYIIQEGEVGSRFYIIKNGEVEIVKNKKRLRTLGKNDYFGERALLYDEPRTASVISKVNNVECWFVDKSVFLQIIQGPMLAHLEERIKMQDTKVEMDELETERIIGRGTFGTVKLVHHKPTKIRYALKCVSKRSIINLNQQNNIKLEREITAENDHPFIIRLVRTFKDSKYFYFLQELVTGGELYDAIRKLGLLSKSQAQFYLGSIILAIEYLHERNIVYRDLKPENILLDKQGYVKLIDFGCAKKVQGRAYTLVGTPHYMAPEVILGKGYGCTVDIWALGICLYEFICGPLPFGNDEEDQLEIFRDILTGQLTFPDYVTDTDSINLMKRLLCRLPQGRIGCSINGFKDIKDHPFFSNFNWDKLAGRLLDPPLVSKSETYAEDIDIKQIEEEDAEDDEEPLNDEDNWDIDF
# UniProt Q9H9B1, 1126-1243 limits assumed: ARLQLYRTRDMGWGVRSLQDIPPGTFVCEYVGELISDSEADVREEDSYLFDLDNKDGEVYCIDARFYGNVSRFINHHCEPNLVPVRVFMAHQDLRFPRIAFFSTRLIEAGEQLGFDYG
# UniProt P08510, 1-655 with tags or gaps DEL6-46: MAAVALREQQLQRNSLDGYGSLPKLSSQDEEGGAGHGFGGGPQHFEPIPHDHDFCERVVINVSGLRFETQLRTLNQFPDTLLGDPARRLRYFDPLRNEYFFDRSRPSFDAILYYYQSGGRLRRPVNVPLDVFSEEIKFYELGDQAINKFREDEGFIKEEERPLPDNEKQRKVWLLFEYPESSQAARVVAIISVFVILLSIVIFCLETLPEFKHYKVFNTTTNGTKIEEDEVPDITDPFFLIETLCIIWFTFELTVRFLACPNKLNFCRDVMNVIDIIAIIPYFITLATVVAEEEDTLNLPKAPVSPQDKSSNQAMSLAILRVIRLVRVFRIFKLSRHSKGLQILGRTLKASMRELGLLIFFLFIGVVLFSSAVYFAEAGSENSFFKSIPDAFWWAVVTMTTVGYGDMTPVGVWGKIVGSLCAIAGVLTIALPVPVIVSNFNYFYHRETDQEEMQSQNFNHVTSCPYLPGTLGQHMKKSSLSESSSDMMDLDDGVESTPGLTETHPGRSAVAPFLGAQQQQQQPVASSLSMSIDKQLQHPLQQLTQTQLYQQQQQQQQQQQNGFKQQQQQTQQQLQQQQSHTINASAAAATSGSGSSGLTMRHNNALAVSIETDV
# UniProt P32121, whole entry partner: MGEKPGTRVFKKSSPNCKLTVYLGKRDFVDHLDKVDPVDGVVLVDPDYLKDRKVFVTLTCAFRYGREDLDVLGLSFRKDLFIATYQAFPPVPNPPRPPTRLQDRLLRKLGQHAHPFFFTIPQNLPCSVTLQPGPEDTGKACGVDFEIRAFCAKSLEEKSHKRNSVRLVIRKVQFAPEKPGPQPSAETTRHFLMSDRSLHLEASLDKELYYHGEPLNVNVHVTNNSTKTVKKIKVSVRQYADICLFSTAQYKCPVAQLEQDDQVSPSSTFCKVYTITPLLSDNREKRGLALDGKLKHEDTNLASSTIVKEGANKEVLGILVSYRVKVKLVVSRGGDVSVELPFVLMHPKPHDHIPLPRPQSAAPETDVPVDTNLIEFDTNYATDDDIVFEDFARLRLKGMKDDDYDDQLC
# ± marks the error that the study gave.
# OPRL1: Nociceptin receptor (OPRL1, Homo sapiens, UniProt P41146)
# Orco: Orco (Drosophila melanogaster, UniProt Q9VNB5)
# PKG: cGMP-dependent protein kinase (PKG, Plasmodium falciparum, UniProt Q8I719)
SMILES,target or system,test,test system,setting,how to read,endpoint,value
CC(C)[C@H]1CC[C@@H](N2CCC3(CC2)C(=O)NCN3c2ccccc2)CC1,OPRL1,"β-arrestin recruitment, BRET",HEK293,"concentration not given, unit not given, with: β-arrestin 2",relative to: N/OFQ maximal effect,intrinsic activity,0.43 ± 0.04
CCOP(=O)(OCC)ON1C(=O)c2cccc3cccc(c23)C1=O,carboxylesterase (rat),"enzyme activity, inhibitor","rat, postnatal day 12, rat liver homogenate",with: p-nitrophenyl valerate,,IC50,5.3 nM
O=C1Cc2ccccc2N1C1CCN([C@@H]2CC[C@H]3CCCc4cccc2c43)CC1,OPRL1,"G protein interaction, BRET",HEK293 membranes,"concentration not given, unit not given",relative to: N/OFQ maximal effect,intrinsic activity,1.01 ± 0.03
Cc1ccc(S(=O)(=O)Nc2cccc(C(=O)NC3CCN(c4ncnc5[nH]cnc45)CC3)c2)cc1,"Replicase polyprotein 1ab, nsp14 ExoN with nsp10 (rep, Severe acute respiratory syndrome coronavirus 2, UniProt P0DTD1)",ExoN activity,,50 µM,,inhibition,-0.121%
CCc1ccc2c(c1)CCN2C(=O)CSc1nnc(-c2ccncc2)n1CC,Orco,"calcium mobilization, agonist",HEK293 expressing Drosophila Orco,,relative to: VUAA1,efficacy,130%
CCN(CC)Cc1onc(-c2cccc(Cl)c2)c1-c1ccnc(N[C@@H]2CCN(C(=O)c3ccn(C)n3)C2)n1,PKG,"kinase activity, inhibitor, IMAP",,10 µM,,inhibition,98.4 ± 1.8%
CNC(=O)CC1C(=O)N(C2CCN([C@H]3CC[C@@H](C(C)C)CC3)CC2)c2ccccc21 (some centres unmarked),OPRL1,calcium mobilization,CHO with Gαqi5,"concentration not given, unit not given",relative to: compound over N/OFQ Emax,intrinsic activity,0.96
C=CCn1c(SCC(=O)N2CCc3cc(CC)ccc32)nnc1-c1ccncc1,Orco,"calcium mobilization, agonist",HEK293 expressing Drosophila Orco,,relative to: VUAA1,efficacy,76%
CC[C@H](C)[C@H](NC(=O)[C@H](C)NC(=O)[C@H](CCC(=O)O)NC(=O)[C@H](CCC(=O)O)NC(=O)[C@H](CC(C)C)NC(=O)[C@H](CCCCN)NC(=O)[C@H](CCCCN)NC(=O)[C@H](CCSC)NC(=O)[C@H](CCC(=O)O)NC(=O)[C@H](Cc1ccc(O)cc1)NC(=O)[C@H](CCC(=O)O)NC(=O)[C@H](CC(C)C)NC(=O)[C@H](CC(=O)O)NC(=O)[C@H](CC(C)C)NC(=O)[C@H](Cc1ccccc1)NC(=O)[C@@H](NC(=O)[C@@H](NC(=O)[C@H](CC(N)=O)NC(=O)[C@@H](NC(=O)[C@H](CCC(N)=O)NC(=O)[C@H](CC(=O)O)NC(=O)[C@H](CC(C)C)NC(=O)[C@@H](N)CO)[C@@H](C)CC)C(C)C)[C@@H](C)O)C(=O)N[C@@H](CCCCN)C(=O)N[C@@H](CCCCN)C(=O)N[C@@H](CC(C)C)C(=O)N[C@@H](CCC(=O)O)C(=O)N[C@@H](CCC(=O)O)C(=O)N[C@@H](CO)C(=O)N[C@@H](Cc1ccc(O)cc1)C(=O)N[C@H](C(=O)N[C@@H](CC(=O)O)C(=O)N[C@@H](CC(C)C)C(=O)N[C@@H](CCCCN)C(=O)N[C@@H](CCC(=O)O)C(=O)N[C@@H](CC(C)C)C(=O)O)[C@@H](C)CC,SARS-CoV-2 Gamma pseudovirus,"pseudovirus infection, inhibitor, luciferase",Caco-2,"24 h, dual mutations",,IC50,1360 nM
CS(=O)(=O)Cc1onc(-c2cccc(Cl)c2)c1-c1ccnc(N[C@@H]2CCN(C(=O)c3nccs3)C2)n1,"cGMP-dependent protein kinase (PKG, Plasmodium falciparum, UniProt Q8I719, T618Q)","kinase activity, inhibitor, IMAP",,"10 µM, gatekeeper mutant",,inhibition,33 ± 9%
COc1cc2c(NC3CCN(Cc4ccccc4)CC3)nc(NCCCN(C)C)nc2cc1OCCCCCN,"Histone-lysine N-methyltransferase EHMT1, SET domain (EHMT1, Homo sapiens, UniProt Q9H9B1)",enzyme activity,,,relative to: apparent Ki KDM7A over EHMT1,selectivity ratio,~2500
CCCN(C)Cc1onc(-c2cccc(Cl)c2)c1-c1ccnc(N[C@@H]2CCN(C(=O)c3ccn(C)n3)C2)n1,PKG,"kinase activity, inhibitor, IMAP",,10 µM,,inhibition,96 ± 1.4%
CC[C@H](C)[C@H](NC(=O)[C@H](C)NC(=O)[C@H](CCC(=O)O)NC(=O)[C@H](CCC(=O)O)NC(=O)[C@H](CC(C)C)NC(=O)[C@H](CCCCN)NC(=O)[C@H](CCCCN)NC(=O)[C@H](CCSC)NC(=O)[C@H](CCC(=O)O)NC(=O)[C@H](Cc1ccc(O)cc1)NC(=O)[C@H](CCC(=O)O)NC(=O)[C@H](CC(C)C)NC(=O)[C@H](CC(=O)O)NC(=O)[C@H](CC(C)C)NC(=O)[C@H](Cc1ccccc1)NC(=O)[C@H](Cc1ccc(O)cc1)NC(=O)[C@@H](NC(=O)[C@H](CC(N)=O)NC(=O)[C@@H](NC(=O)[C@H](CCC(N)=O)NC(=O)[C@H](CC(=O)O)NC(=O)[C@H](CC(C)C)NC(=O)[C@@H](N)CO)[C@@H](C)CC)C(C)C)C(=O)N[C@@H](CCCCN)C(=O)N[C@@H](CCCCN)C(=O)N[C@@H](CC(C)C)C(=O)N[C@@H](CCC(=O)O)C(=O)N[C@@H](CCC(=O)O)C(=O)N[C@@H](CO)C(=O)N[C@@H](Cc1ccc(O)cc1)C(=O)N[C@H](C(=O)N[C@@H](CC(=O)O)C(=O)N[C@@H](CC(C)C)C(=O)N[C@@H](CCCCN)C(=O)N[C@@H](CCC(=O)O)C(=O)N[C@@H](CC(C)C)C(=O)O)[C@@H](C)CC,SARS-CoV-2 Gamma pseudovirus,"pseudovirus infection, inhibitor, luciferase",Caco-2,24 h,,IC50,468 nM
CC[C@H](C)[C@@H]1NC(=O)[C@H](CCCNC(=N)N)NC(=O)[C@@H](N)CSSC[C@@H]2NC(=O)[C@@H]3CSSC[C@@H](C(=O)N[C@H](C(=O)O)C(C)C)NC(=O)[C@H](CCCCN)NC(=O)[C@H](CC(N)=O)NC(=O)[C@H](Cc4ccccc4)NC(=O)[C@H](CCCNC(=N)N)NC(=O)[C@H](CC(N)=O)NC(=O)[C@H](CSSC[C@H](NC(=O)[C@H](CCCCN)NC(=O)[C@H](CCC(N)=O)NC(=O)[C@H](CC(N)=O)NC(=O)[C@@H]4C[C@@H](O)CN4C1=O)C(=O)N[C@@H](Cc1ccccc1)C(=O)N[C@@H](CCC(N)=O)C(=O)N[C@@H](Cc1c[nH]cn1)C(=O)N[C@@H](CC(C)C)C(=O)N[C@@H](CC(=O)O)C(=O)N[C@@H](CC(=O)O)C(=O)N3)NC(=O)[C@H](CCCCN)NC(=O)[C@H](CCCNC(=N)N)NC(=O)[C@H](CO)NC2=O,"Sh (Drosophila melanogaster, UniProt P08510, del6-46)","potassium current, patch clamp",,"500 nM, with: 1 mM TEA",,"inhibition difference, pulse vs chronic",< 3%

# Some of these lines once more:
SMILES,target or system,test,test system,setting,how to read,endpoint,value
Cc1ccc(S(=O)(=O)Nc2cccc(C(=O)NC3CCN(c4ncnc5[nH]cnc45)CC3)c2)cc1,"Replicase polyprotein 1ab, nsp14 ExoN with nsp10 (rep, Severe acute respiratory syndrome coronavirus 2, UniProt P0DTD1)",ExoN activity,,50 µM,,inhibition,-0.121%
CCc1ccc2c(c1)CCN2C(=O)CSc1nnc(-c2ccncc2)n1CC,Orco,"calcium mobilization, agonist",HEK293 expressing Drosophila Orco,,relative to: VUAA1,efficacy,130%
